Measurements from different studies.
A part holds a random share of what one study measured. Several values in a cell are separate wells, animals, samples, runs or records.
Chain of UniProt O96017 (whole entry, looked up): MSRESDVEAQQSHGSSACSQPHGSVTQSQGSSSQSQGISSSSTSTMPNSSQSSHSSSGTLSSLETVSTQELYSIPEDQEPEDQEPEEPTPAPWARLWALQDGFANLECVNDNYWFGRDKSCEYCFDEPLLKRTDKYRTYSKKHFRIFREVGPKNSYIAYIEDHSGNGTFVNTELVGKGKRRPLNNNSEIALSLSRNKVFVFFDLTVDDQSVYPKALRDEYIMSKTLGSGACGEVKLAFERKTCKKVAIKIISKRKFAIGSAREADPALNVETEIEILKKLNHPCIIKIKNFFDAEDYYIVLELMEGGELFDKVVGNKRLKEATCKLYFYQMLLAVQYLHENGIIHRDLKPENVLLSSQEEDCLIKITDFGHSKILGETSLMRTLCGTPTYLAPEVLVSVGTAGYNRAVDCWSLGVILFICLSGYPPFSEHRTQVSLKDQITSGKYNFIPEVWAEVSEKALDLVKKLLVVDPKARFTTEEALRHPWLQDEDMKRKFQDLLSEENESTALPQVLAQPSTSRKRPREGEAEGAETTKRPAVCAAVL
Chain of UniProt Q16288 (whole entry, looked up): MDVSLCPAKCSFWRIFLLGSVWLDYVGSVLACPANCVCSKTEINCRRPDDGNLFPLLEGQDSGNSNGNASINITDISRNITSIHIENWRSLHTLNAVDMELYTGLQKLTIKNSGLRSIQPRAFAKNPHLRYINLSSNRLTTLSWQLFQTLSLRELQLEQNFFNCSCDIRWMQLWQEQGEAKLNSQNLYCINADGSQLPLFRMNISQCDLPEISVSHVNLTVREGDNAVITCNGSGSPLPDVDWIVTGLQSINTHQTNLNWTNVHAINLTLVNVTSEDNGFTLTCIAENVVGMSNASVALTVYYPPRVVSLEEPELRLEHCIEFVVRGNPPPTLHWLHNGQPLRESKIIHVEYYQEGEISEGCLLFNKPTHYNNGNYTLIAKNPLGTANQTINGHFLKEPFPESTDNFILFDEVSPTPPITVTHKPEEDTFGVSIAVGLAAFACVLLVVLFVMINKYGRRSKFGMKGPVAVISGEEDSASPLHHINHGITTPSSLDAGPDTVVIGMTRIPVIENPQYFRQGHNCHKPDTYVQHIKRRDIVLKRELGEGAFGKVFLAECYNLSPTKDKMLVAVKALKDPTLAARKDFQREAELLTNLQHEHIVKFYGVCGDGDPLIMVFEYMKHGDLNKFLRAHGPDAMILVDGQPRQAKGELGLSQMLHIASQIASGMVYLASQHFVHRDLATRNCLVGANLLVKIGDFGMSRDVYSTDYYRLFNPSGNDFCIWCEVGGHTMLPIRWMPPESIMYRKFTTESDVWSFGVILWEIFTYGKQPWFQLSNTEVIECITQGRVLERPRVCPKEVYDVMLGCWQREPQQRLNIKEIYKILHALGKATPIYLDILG
Chain of UniProt O14804 (whole entry, looked up): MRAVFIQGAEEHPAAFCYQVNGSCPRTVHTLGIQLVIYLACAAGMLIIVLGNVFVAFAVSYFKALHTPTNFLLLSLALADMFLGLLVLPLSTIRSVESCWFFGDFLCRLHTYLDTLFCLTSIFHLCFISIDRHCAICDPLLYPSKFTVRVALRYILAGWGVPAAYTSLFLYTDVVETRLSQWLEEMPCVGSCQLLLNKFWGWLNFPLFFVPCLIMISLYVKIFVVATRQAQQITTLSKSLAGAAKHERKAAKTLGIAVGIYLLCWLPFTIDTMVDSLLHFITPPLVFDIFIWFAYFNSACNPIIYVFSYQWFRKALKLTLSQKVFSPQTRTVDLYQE
Chain of UniProt Q14164 (whole entry, looked up): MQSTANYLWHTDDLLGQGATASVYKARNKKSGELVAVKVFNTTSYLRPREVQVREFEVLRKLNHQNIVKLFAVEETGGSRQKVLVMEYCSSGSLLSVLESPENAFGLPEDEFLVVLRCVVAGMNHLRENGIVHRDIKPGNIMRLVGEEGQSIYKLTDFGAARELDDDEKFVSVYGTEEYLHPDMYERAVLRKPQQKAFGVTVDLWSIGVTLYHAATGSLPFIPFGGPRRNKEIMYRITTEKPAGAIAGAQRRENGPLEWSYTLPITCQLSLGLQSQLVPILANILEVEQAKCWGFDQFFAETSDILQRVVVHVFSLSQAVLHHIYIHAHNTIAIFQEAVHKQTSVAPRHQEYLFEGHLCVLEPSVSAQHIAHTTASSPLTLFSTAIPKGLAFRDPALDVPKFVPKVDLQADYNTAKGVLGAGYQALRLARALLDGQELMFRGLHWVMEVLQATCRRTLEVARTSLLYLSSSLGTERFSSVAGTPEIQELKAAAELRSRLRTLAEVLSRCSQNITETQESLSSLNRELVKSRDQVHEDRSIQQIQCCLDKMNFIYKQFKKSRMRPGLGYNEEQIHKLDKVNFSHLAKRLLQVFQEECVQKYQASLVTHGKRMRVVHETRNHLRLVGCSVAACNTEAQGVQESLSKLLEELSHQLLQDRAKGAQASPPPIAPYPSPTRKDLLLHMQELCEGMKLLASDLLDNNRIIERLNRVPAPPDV
Chain of UniProt P08912 (whole entry, looked up): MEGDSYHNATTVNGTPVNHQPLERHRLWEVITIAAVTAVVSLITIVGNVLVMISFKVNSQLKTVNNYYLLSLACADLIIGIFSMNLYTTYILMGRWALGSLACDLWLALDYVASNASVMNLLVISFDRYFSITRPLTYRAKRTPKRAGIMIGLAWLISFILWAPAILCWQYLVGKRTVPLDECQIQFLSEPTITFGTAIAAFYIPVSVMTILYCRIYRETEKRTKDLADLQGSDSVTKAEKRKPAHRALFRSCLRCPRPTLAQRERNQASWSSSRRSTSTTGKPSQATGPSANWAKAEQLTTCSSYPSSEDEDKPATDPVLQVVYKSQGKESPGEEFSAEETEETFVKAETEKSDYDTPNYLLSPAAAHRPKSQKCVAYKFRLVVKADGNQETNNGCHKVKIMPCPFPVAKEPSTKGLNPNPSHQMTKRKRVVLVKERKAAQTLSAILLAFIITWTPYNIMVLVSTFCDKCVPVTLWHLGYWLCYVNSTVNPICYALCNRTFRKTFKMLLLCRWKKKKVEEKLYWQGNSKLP
Chain of UniProt P37173 (whole entry, looked up): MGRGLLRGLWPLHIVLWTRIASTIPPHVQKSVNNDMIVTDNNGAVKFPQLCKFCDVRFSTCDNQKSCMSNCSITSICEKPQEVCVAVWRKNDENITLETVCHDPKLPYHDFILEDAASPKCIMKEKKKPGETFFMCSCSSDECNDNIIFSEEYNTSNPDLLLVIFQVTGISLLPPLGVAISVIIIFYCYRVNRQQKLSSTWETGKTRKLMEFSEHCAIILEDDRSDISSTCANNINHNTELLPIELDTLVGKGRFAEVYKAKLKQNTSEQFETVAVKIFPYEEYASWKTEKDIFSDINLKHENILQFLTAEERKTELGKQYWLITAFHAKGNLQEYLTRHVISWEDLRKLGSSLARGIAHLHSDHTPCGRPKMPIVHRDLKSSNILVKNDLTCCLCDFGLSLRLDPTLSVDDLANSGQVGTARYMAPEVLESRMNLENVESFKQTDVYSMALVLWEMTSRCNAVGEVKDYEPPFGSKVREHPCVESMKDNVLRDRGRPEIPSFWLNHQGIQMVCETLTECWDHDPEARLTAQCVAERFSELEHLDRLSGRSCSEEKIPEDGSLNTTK
Chain of UniProt P11802 (whole entry, looked up): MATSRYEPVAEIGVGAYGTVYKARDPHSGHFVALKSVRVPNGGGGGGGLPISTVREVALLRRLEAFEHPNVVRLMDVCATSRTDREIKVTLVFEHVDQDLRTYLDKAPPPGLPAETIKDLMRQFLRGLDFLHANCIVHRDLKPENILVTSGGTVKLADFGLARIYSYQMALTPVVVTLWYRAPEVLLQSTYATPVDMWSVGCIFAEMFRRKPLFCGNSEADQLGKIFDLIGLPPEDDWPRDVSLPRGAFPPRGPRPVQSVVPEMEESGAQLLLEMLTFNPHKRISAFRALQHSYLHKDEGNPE
Chain of UniProt P36897 (whole entry, looked up): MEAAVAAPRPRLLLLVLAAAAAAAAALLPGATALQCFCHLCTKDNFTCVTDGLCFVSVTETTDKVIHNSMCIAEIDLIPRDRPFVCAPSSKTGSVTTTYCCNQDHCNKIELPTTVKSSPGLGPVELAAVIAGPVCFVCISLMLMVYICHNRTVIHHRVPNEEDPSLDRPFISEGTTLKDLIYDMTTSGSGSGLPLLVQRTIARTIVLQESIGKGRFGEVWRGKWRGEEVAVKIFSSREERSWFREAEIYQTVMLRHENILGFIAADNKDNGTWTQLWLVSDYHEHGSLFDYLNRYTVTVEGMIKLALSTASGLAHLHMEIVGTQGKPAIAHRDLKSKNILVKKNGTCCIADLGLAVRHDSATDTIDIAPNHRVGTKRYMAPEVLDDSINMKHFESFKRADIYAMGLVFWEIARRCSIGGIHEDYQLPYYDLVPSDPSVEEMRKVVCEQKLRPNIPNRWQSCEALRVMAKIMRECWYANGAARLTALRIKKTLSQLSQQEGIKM
Chain of UniProt P49238 (whole entry, looked up): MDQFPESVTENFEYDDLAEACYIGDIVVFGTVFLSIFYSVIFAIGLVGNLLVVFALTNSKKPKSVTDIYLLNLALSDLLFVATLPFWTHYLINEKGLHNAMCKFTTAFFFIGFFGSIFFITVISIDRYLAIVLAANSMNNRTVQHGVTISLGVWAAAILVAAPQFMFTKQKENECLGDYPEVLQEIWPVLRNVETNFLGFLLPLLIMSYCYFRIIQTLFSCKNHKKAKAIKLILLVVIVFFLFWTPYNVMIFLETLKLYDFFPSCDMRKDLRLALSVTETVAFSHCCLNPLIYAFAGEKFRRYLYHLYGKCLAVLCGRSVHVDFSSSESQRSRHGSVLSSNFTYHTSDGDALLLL
Chain of UniProt Q00535 (whole entry, looked up): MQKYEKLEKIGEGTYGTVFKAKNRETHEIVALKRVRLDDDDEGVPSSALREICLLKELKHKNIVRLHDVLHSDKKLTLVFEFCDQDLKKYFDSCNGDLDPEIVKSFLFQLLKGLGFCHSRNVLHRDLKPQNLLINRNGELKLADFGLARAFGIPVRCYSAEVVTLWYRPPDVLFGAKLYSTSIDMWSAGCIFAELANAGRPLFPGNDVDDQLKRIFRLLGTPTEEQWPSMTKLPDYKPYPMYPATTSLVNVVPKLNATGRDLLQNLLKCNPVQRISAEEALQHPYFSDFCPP

Study 1
Cell line: mouse MPNST tumor cells
Technique: high-content nuclear imaging
Item: cell number
Concentration: 10 µM
Time: 12 h
Notes: mean of 2 replicates
Relative to: plate mean
Direction: higher = more cells
Measurement: nuclei count
SMILES = CCn1cc(C(=O)O)c(=O)c2cnc(N3CCCC3)nc21; result = 1.89 z-score
SMILES = COc1ccccc1OCC(O)COC(N)=O (stereo not drawn); result = 0.323 z-score and 1.28 z-score
SMILES = O=C(NCC(=O)N1CCCCC1)Nc1ccc2nnsc2c1; result = 1.24 z-score
SMILES = CC(=O)O[C@H]1C(=O)[C@@]2(C)[C@H]([C@H](OC(=O)c3ccccc3)[C@]3(O)C[C@H](OC(=O)[C@H](O)[C@@H](NC(=O)c4ccccc4)c4ccccc4)C(C)=C1C3(C)C)[C@]1(OC(C)=O)CO[C@@H]1C[C@@H]2O; result = -5.55 z-score and -3.87 z-score
SMILES = Cc1ccc(O)c([C@H](CCN(C(C)C)C(C)C)c2ccccc2)c1; result = 4.36 z-score and 2.95 z-score

Study 2
Host: mouse
Sample: microsomes or S9
Concentration: 2 µM
Time: 0.5 h
Measurement: remaining compound
Structure (SMILES) = CSc1nnc(CNC(=O)OC(C)(C)C)n1-c1ccccc1; result = 9.03%
Structure (SMILES) = COC(=O)C1CCN(C(=O)c2ccccc2N(C)S(C)(=O)=O)CC1; result = 41.8%
Structure (SMILES) = c1cc2c(cn1)cnn2Cc1nnc2ccc(-n3ncc4cnccc43)nn12; result = 2.92%
Structure (SMILES) = CCn1ccc(C(=O)N2C[C@@H](F)C[C@H]2Cn2cc(C(N)=O)nn2)n1; result = > 100%
Structure (SMILES) = Cn1ncnc1CN(Cc1ccc2c(c1)OCO2)C1CCCCC1; result = 0.00969%
Structure (SMILES) = COc1cccc(-c2csc(C3(c4ccc(OC)c(C)c4)N=C(N)N(C)C3=O)n2)c1 (stereo not drawn); result = 16%
Structure (SMILES) = Cc1ccnn1CCNC(=O)CCc1nc2ncc(Br)cc2[nH]1; result = 64.2%

Study 3
SMILES: COc1cc(-c2cn(C3CCc4ccccc4N(CC(F)(F)F)C3=O)nn2)ccc1-n1ccc(C)n1 (stereo not drawn)
Concentration: 1 µM
Measurement: remaining binding
target = CDC42BPG (Homo sapiens, UniProt Q6DT37); technique = competition binding; result = 100%
target = CHEK2 (Homo sapiens, UniProt O96017); observed = cell-free assay; technique = competition with immobilised ligand; result = 100%
target = NTRK3 (Homo sapiens, UniProt Q16288); observed = cell-free assay; technique = competition with immobilised ligand; result = 98%
target = MUSK (Homo sapiens, UniProt O15146); observed = cell-free assay; technique = competition with immobilised ligand; result = 99%
target = EPHA4 (Homo sapiens, UniProt P54764); observed = cell-free assay; technique = competition with immobilised ligand; result = 92%

Study 4
Structure (SMILES): CCN(c1nc(N)c(C(=O)N=C(N)N)nc1Cl)C(C)C
Observed: β-arrestin recruitment
Mode: agonist
Technique: PRESTO-Tango
Concentration: 10 µM
Relative to: untreated
Measurement: fold over basal
target = TAAR5 (Homo sapiens, UniProt O14804); result = 1.25 fold
target = CHRM5 (Homo sapiens, UniProt P08912); result = 0.96
target = CX3CR1 (Homo sapiens, UniProt P49238); result = 1.12
target = HRH2 (Homo sapiens, UniProt P25021); result = 1.35 fold

Study 5
Cell line: HaCaT
Concentration: 100 µM
Time: 60 h
Measurement: viability
SMILES = CNC(=O)c1cnn(-c2nc(N)c3ncn([C@@H]4O[C@H](CO)[C@@H](O)[C@H]4O)c3n2)c1; result = 129%
SMILES = NC(=O)N1c2ccccc2CC(=O)c2ccccc21; result = 34.8%
SMILES = CCc1nn(CCCN2CCN(c3cccc(Cl)c3)CC2)c(=O)n1CCOc1ccccc1; result = 16.2%
SMILES = Cc1cc(=O)n(-c2ccccc2)n1C; result = 152%
SMILES = COc1cc(C(=O)N2CCOCC2)cc(OC)c1OC; result = 116%

Study 6
SMILES: N#Cc1cnc2cnc(NCc3cccnc3)cc2c1Nc1ccc(F)c(Cl)c1
Observed: enzyme activity
Mode: inhibitor
Concentration: 0.5 µM
Relative to: control
Measurement: remaining activity
target = cGMP-dependent protein kinase 1, isoform beta (PRKG1, Homo sapiens, UniProt Q13976); result = 87.2%
target = IKBKE (Homo sapiens, UniProt Q14164); result = 90.6%
target = DAPK1 (Homo sapiens, UniProt P53355); result = 102%
target = Tyrosine-protein kinase Lyn, isoform B (LYN, Homo sapiens, UniProt P07948); result = 94.1%
target = STK11 (Homo sapiens, UniProt Q15831); result = 91.1%
target = MAPK9 (Homo sapiens, UniProt P45984); result = 100%
target = GRK3 (Homo sapiens, UniProt P35626); result = 100%
target = NEK2 (Homo sapiens, UniProt P51955); result = 75.2%
target = CHEK2 (Homo sapiens, UniProt O96017); result = 90.5%
target = Cyclin-dependent kinase 4, with cyclin D1 (CDK4, Homo sapiens, UniProt P11802); result = 97.6%
target = PRKACA (Homo sapiens, UniProt P17612); result = 92.2%
target = STK39 (Homo sapiens, UniProt Q9UEW8); result = 78.6%
target = PRKCA (Homo sapiens, UniProt P17252); result = 89.7%
target = DAPK2 (Homo sapiens, UniProt Q9UIK4); result = 108%
target = OXSR1 (Homo sapiens, UniProt O95747); result = 87.7%
target = Protein kinase C beta type, isoform beta-I (PRKCB, Homo sapiens, UniProt P05771); result = 104%
target = CAMKK2 (Homo sapiens, UniProt Q96RR4); result = 90.1%
target = CAMK2D (Homo sapiens, UniProt Q13557); result = 103%
target = MAP3K3 (Homo sapiens, UniProt Q99759); result = 75%
target = IKBKB (Homo sapiens, UniProt O14920); result = 103%
target = Cyclin-dependent kinase 5, with p25 (CDK5, Homo sapiens, UniProt Q00535); result = 78.3%
target = TGFBR1 (Homo sapiens, UniProt P36897); result = 99.6%
target = TGFBR2 (Homo sapiens, UniProt P37173); result = 118%
target = STK10 (Homo sapiens, UniProt O94804); result = 52.8%

Study 7
Target: Diamine acetyltransferase 1 (Homo sapiens, UniProt P21673)
Mode: inhibitor
Concentration: 10 µM
Relative to: control
Measurement: remaining activity
Residues (P21673 1-171): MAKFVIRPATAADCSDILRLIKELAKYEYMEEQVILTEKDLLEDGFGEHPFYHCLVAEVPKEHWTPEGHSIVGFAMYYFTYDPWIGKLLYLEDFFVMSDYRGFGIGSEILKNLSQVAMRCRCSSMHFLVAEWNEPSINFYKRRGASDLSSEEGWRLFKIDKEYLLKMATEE
SMILES = CC(O)CO (racemic); result = 88.3%
SMILES = COc1ccc(-c2cc(=O)c3c(O)cc(O[C@@H]4O[C@H](CO)[C@@H](O)[C@H](O)[C@H]4O)cc3o2)cc1; result = 85.2%
SMILES = O=C1C[C@@H](c2ccc(O)c(O)c2)Oc2cc(O)cc(O)c21; result = 91.3%
SMILES = CC(C)=CCC/C(C)=C/CC/C(C)=C/CO; result = 94.5%

Excerpt of the above (study 5):
SMILES = NC(=O)N1c2ccccc2CC(=O)c2ccccc21; result = 34.8%
SMILES = CCc1nn(CCCN2CCN(c3cccc(Cl)c3)CC2)c(=O)n1CCOc1ccccc1; result = 16.2%
SMILES = Cc1cc(=O)n(-c2ccccc2)n1C; result = 152%
SMILES = COc1cc(C(=O)N2CCOCC2)cc(OC)c1OC; result = 116%
